Experimental data from different studies.
± marks the error that the study gave.
Cell line: HCT-116

CC(=O)N[C@H]1C(n2cc([C@@](C)(O)c3cccc(F)c3)nn2)O[C@H](COCc2ccccc2)[C@H](OCc2ccccc2)[C@@H]1OCc1ccccc1 (stereo partly drawn) — IC50 (cell growth or viability, MTS; 72 h): > 100 µM
CCCCCC(=O)O[C@H]1[C@H](C)O[C@@H](O[C@H]2[C@H](N(C)C)[C@@H](O)[C@H](O[C@H]3[C@@H](CC=O)C[C@@H](C)[C@@H](O[C@H]4CC[C@H](N(C)C)[C@@H](C)O4)/C=C/C=C/C[C@@H](C)OC(=O)C[C@@H](O)[C@@H]3OC)O[C@@H]2C)C[C@@]1(C)O — IC50 (cell growth or viability, CCK-8; 72 h): 38.5 µM
COc1cc(C2COc3cc(O)cc(O)c3C2=NN)c(OC)cc1O (stereo not drawn) — IC50 (cell growth or viability, MTT; 72 h): 126 µM
CC12CCCC(n3cc(C(=O)N4CCC(N)CC4)nn3)(C1)C1CC(C)(C)C1CC2 (stereo not drawn) — IC50 (cell growth or viability, CCK-8; 72 h): 14.3 µM
C/C(=N\NC(=S)N(C)C)c1ccc(S(=O)(=O)N2CCC(C)CC2)cc1 — IC50 (cell growth or viability, MTT): 11.8 µM
COCCOCCSc1nc(N)c2c(F)c(C#N)c(F)c(F)c2n1 — IC50 (cell growth or viability, MTT; 96 h): 5.55 µM
Cc1cc(C)c([N+]#[C][Pt-]([Cl])([Cl])=[C](Nc2ccc(CN[C](NC(C)(C)C)=[Au][Cl])cc2)Nc2c(C)cc(C)cc2C)c(C)c1 — IC50 (cell growth or viability): 0.5 µM
O=C(NCCNc1n[n+]([O-])c2ccccc2[n+]1[O-])C(F)(F)F — IC50 (cytotoxicity, MTT; 24 h, normoxia): 44 ± 17.2 µM
C#CCN(CC(=O)O[C@H]1[C@H](C)O[C@@H](O[C@H]2[C@H](N(C)C)[C@@H](O)[C@H](O[C@H]3[C@@H](CC=O)C[C@@H](C)[C@@H](O[C@H]4CC[C@H](N(C)C)[C@@H](C)O4)/C=C/C=C/C[C@@H](C)OC(=O)C[C@@H](O)[C@@H]3OC)O[C@@H]2C)C[C@@]1(C)O)C(=O)c1ccc(C(C)(C)C)cc1 — IC50 (cell growth or viability, CCK-8; 72 h): 11 µM
NC(=S)NNC(=O)c1cc2c(ccc3ccccc32)oc1=O — IC50 (cell growth or viability, SRB; 72 h): 3.5 µM
C/C(=N\NC(N)=S)c1c(O)c2ccccc2oc1=O — IC50 (cell growth or viability, MTT; 48 h): 17.8 µM
CO[C@@H]1[C@@H](O[C@@H]2O[C@H](C)[C@@H](O[C@H]3C[C@@](C)(O)[C@@H](O)[C@H](C)O3)[C@H](N(C)C)[C@H]2O)[C@@H](CC=O)C[C@@H](C)[C@@H](O[C@H]2CC[C@H](N(C)C)[C@@H](C)O2)/C=C/C=C/C[C@@H](C)OC(=O)C[C@H]1OC(=O)c1ccc(C(C)(C)C)cc1 — IC50 (cell growth or viability, CCK-8; 72 h): 10.9 µM
NC1=N[N+](=Cc2c3ccccc3cc3ccccc23)[Ga-3]23([S]1)([S]C(N)=N[N+]2=Cc1c2ccccc2cc2ccccc12)[S]C(N)=N[N+]3=Cc1c2ccccc2cc2ccccc12 — IC50 (24 h): 25.4 ± 0.9 µM
C#CCOc1ccc(/C=N\NC(=O)c2ccncc2)cc1 — IC50 (cell growth or viability, MTT; 48 h): 395 µM
CNS(=O)(=O)Nc1cccc(-n2c(=O)n(C3CC3)c(=O)c3c(Nc4ccc(I)cc4F)n(C)c(=O)c(C)c32)c1 — IC50 (cell viability, resazurin; 120 h, low attachment): 7e-05 ± 4e-05 µM
CSc1nc(Nc2ccc(/C(C)=N/NC(=O)c3ccc([N+](=O)[O-])cc3)cc2)c(C#N)c(-c2ccccc2)n1 — IC50 (cell growth or viability, MTT; 48 h): 13.8 µM
CSc1nc(N)c2c(F)c(C#N)c(F)c(Cl)c2n1 — IC50 (cell growth or viability, MTT; 96 h): 5.08 µM
COC(=O)C(NC(=O)CNC(=O)CNC(=O)COc1ccc2c(C)cc(=O)oc2c1)c1ccccc1 (stereo in doubt) — IC50 (cell growth or viability, MTT): 140 µM
O=C(NCCCCCCCCNc1n[n+]([O-])c2ccccc2[n+]1[O-])C(F)(F)F — IC50 (cytotoxicity, MTT; 24 h, hypoxia): 50.5 µM
N#Cc1c(F)c(Cl)c2nc(SCc3ccccc3)nc(N)c2c1F — IC50 (cell growth or viability, MTT; 96 h): 6.71 µM
CCOC(=O)CS/C(Nc1ccccc1)=C(\C#N)C(=O)Nc1nnc(NC(=O)c2ccccc2)s1 — IC50 (cell growth or viability, MTT; 48 h): 63.1 µM
O=C(CCc1nc2cc(Cl)ccc2[nH]c1=O)NN1C(=O)c2ccccc2C1=O — IC50 (cell growth or viability, MTT): 37.2 µM
CC(C)c1cccc(C(C)C)c1[N+]#[C][Pd-]([Cl])([Cl])=[C](Nc1ccc(CN[C](NC(C)(C)C)=[Au][Cl])cc1)Nc1c(C(C)C)cccc1C(C)C — IC50 (cell growth or viability): 33 µM
CN1CCN(c2ccc(Nc3nccc(-c4cn(C5CCCC5)nn4)n3)cc2)CC1 — IC50 (cell growth or viability, SRB; 72 h): 6.68 µM
OC[C@H]1[C@@H](O)[C@@H](O)CN1CCc1ccccc1 — IC50 (cell growth or viability, MTS; 72 h): > 200 µM
CSC(=NN=C(C)c1ccc(S(=O)(=O)N2CCC(C)CC2)cc1)N(C)C — IC50 (cell growth or viability, MTT): 3.53 µM
CSc1nc(Nc2ccc(C(=O)N/N=C/c3ccc(Cl)cc3)cc2)c(C#N)c(-c2ccccc2)n1 — IC50 (cell growth or viability, MTT; 48 h): 12.3 µM
O=C(CN1C(=O)S/C(=C\c2ccccc2Br)C1=O)Nc1ccc(C(=O)Nc2ccc(F)cc2)cc1 — IC50 (cell growth or viability, MTT): 29 µM
CC1CNCCN1C(=O)c1cn(C23CCCC(C)(CCC4C2CC4(C)C)C3)nn1 (stereo not drawn) — IC50 (cell growth or viability, CCK-8; 72 h): 13.2 µM
Cc1cc(C)c(N[C](NCc2ccc(N[C](Nc3c(C(C)C)cccc3C(C)C)=[Pd-]([Cl])([Cl])[C]#[N+]c3c(C(C)C)cccc3C(C)C)cc2)=[Au][Cl])c(C)c1 — IC50 (cell growth or viability): > 100 µM
COc1cc2c(Oc3ccc(Nc4nn(C)cc4C(=O)NC4CCCCC4)cc3F)ccnc2cc1OCCCCCCC(=O)NO — IC50 (cell growth or viability, MTT): 0.07 µM
Cc1c(C)c(C)[c-](C)c1C.OCc1ccnc(-c2[c-]cccc2)c1.[Cl-].[Ir+3] — IC50 (SRB; 24 h, 72 h recovery): 57.3 ± 0.9 µM
O=C(CCn1nc(Cc2ccccc2)c2ccccc2c1=O)NCC(=O)N1CCOCC1 — IC50 (cell growth or viability, MTT; 48 h): ≥ 50 µM
CCOC(=O)c1ccc(-n2cc(Cn3c(=O)c(Cc4ccccc4)nc4ccccc43)nn2)cc1 — IC50 (cell growth or viability, MTT; 72 h): 0.123 µM
CC(C)c1ccc2c(c1)CCC1[C@](C)(C(=O)OCCSc3nc(O)c(C#N)c(-c4ccccc4F)n3)CCC[C@]21C (stereo partly drawn) — IC50 (cell growth or viability, MTT; 48 h): 9.53 to 19.4 µM
CN1CCC2(CC1)C/C(=N\NC(=O)Nc1ccc([N+](=O)[O-])cc1)c1ccccc1O2 — IC50 (48 h): 20.7 ± 0.88 µM
CC(C)c1cccc(C(C)C)c1[N+]#[C][Pt-]([Cl])([Cl])=[C](Nc1cccc(CN[C](Nc2c(C(C)C)cccc2C(C)C)=[Au][Cl])c1)Nc1c(C(C)C)cccc1C(C)C — IC50 (cell growth or viability): > 100 µM
O=C(NCCCCCCCNc1n[n+]([O-])c2ccccc2[n+]1[O-])C(F)(F)F — IC50 (cytotoxicity, MTT; 24 h, normoxia): 106 ± 2 µM
COc1cc2c(=O)c(-c3ccc4c(c3)OCO4)coc2c2c1OC(C)(C)C=C2 — IC50 (cell growth or viability, MTT; 72 h): 15.1 µM

Some of these lines once more:
C#CCOc1ccc(/C=N\NC(=O)c2ccncc2)cc1 — IC50 (cell growth or viability, MTT; 48 h): 395 µM
CNS(=O)(=O)Nc1cccc(-n2c(=O)n(C3CC3)c(=O)c3c(Nc4ccc(I)cc4F)n(C)c(=O)c(C)c32)c1 — IC50 (cell viability, resazurin; 120 h, low attachment): 7e-05 ± 4e-05 µM
CSc1nc(Nc2ccc(/C(C)=N/NC(=O)c3ccc([N+](=O)[O-])cc3)cc2)c(C#N)c(-c2ccccc2)n1 — IC50 (cell growth or viability, MTT; 48 h): 13.8 µM
